Experimental data pooled from the literature.
Parts stem from different laboratories: compare values within a part only. Substitutions count along the parent as printed.

Sample 1
Target: ABI1, truncated, D143A, DHFR fusion (Arabidopsis thaliana)
Technique: DHFR PCA, deep sequencing
Medium: yeast
Notes: methotrexate growth selection, single substitutions
Added: (+)-ABA 0 µM
Reference: wild-type fitted maximum
Direction: higher = stronger binding
Quantity: relative binding score
Parent: PYL1, truncated, DHFR fusion (Arabidopsis thaliana); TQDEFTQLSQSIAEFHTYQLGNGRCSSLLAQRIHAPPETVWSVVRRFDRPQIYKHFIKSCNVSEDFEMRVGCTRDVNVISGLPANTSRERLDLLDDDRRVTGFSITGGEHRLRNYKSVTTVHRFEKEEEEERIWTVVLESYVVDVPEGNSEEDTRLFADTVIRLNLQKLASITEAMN
Variant = R90P; result = -14%
Variant = V76W; result = -2.88%
Variant = N177L; result = 13.3%
Variant = D97H; result = 16.7%
Variant = R74E; result = 1.92%
Variant = S42F; result = -4.01%
Variant = V76G; result = 0.909%
Variant = S11T; result = 32.1%
Variant = A84C; result = 43.6%
Variant = R69I; result = 18.5%
Variant = N22P; result = 58.3%
Variant = D153M; result = -1.38%
Variant = S80N; result = 38.7%
Variant = R90S; result = -2.42%
Variant = V76C; result = 6.8%
Variant = K126A; result = 51.3%
Variant = V62W; result = -1.52%
Variant = I172S; result = -2.76%
Variant = E89Q; result = -4.99%

Sample 2
Target: CCNB3, cyclin fold, Cln2 fusion (human)
Technique: yeast growth competition, sequencing
Medium: yeast
Notes: weak parent motif
Reference: not given
Direction: higher = stronger binding
Quantity: normalised enrichment score
Parent: DBF4 docking peptide (human); DDIVSKLVFDFVE
Variant = DDIVSKLVFDFAE [V12A]; result = -0.0419
Variant = ADIVSKLVFDFVE [D1A]; result = 0.317
Variant = DDIASKLVFDFVE [V4A]; result = -0.0019
Variant = DDIVSKLVFDFVA [E13A]; result = 0.43
Variant = DDIVSALVFDFVE [K6A]; result = 0.141
Variant = DDAVSKLVFDFVE [I3A]; result = 0.333

Sample 3
Target: Centromere-binding protein 1, full length, N-terminal tag (CBF1, Saccharomyces cerevisiae, UniProt P17106, residues 1-351)
Chain of UniProt P17106 (whole entry, looked up): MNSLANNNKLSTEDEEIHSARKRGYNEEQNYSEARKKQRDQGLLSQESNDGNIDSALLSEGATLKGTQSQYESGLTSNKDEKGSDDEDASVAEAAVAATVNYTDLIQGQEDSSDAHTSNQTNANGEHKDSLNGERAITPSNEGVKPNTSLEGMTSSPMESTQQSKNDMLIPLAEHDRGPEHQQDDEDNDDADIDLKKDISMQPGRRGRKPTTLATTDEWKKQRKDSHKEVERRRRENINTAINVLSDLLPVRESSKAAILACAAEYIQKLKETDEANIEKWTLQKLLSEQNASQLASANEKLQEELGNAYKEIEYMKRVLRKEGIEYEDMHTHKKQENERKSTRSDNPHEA
Technique: protein-binding microarray
Form: double-stranded DNA, one strand shown
Medium: in vitro
Tested at: 0.8 µM
Notes: whole 60-bp probe, no competitor
Direction: higher = stronger binding
Quantity: fluorescence intensity
Oligonucleotide = GAAATTGGTGGTGGTGGTGTTGGCACCAGTACTTAGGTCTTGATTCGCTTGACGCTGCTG; result = 501 a.u.
Oligonucleotide = GAAGAAAACCCTGATAACGTGGTGTCATTTTTATAGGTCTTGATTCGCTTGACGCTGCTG; result = 810 a.u.
Oligonucleotide = GAATAACTCACTCATCACGCTGTTTCCGCTGAATAGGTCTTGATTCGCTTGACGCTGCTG; result = 588 a.u.
Oligonucleotide = CTATTCGGTAGATATCACATGGAATACTGCAGCTTCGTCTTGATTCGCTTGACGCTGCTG; result = 908 a.u.
Oligonucleotide = GAACACGGGATTTGTCACGCAGCGGATTTATTTTAGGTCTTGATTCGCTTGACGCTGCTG; result = 892 a.u.
Oligonucleotide = CTATTCACTGCAATCAACACCACCATGCAAACATTCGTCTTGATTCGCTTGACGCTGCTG; result = 584 a.u.
Oligonucleotide = CTATTTAATTAATCGTGACTGGTCGGAGAAGGCTTCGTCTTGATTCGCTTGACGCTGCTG; result = 1090 a.u.
Oligonucleotide = GAAGAATTAATTAGTCTCACATGGCTGACATAATAGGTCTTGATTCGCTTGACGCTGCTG; result = 898 a.u.
Oligonucleotide = CTAACCAAGCCAATCCATCTGATTGGTCATTTTTTCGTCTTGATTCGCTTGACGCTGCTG; result = 530 a.u.
Oligonucleotide = GAAGTAAGCGTGGACGGTGTGATTTTATTAGTTTAGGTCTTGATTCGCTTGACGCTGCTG; result = 537 a.u.
Oligonucleotide = CCTAACTACTATATGCATGTGCCATAGCTTCGTACAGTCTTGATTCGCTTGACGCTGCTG; result = 784 a.u.
Oligonucleotide = GAATCGCTTCCACGTCATGCCCACGTTTCGTTTTAGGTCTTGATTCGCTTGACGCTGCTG; result = 755 a.u.
Oligonucleotide = CTATTAGAAGGATACTACGTGGGGTTCAAAACCTTCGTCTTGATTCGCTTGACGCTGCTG; result = 476 a.u.
Oligonucleotide = GAAATATGTTCCGCTGATGTGATGTGCAAGATATAGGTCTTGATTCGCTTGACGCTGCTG; result = 619 a.u.
Oligonucleotide = CTAGCAAAACCGGGTGACGGGACACCGCTACGATTCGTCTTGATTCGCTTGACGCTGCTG; result = 494 a.u.
Oligonucleotide = CTACCGTAACGATTTAATATCACGTGGATAGTGTTCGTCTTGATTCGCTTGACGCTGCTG; result = 10900 a.u.
Oligonucleotide = CTACACCCACACCCACACCACACCCACACCCACTTCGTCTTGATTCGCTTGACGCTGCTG; result = 548 a.u.
Oligonucleotide = GAAGCTTCTCTTTCTCGCCTGATAAAGTTGTTTTAGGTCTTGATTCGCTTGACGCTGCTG; result = 511 a.u.
Oligonucleotide = TGTACGAAGCTATAACACGTACCTATAGTAGTTAGGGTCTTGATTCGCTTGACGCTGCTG; result = 512 a.u.
Oligonucleotide = CTACTAAAGAAGAATCATATGAATAAAACTAAATTCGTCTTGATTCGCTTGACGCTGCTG; result = 515 a.u.
Oligonucleotide = CTATCCTCCGTACGTAACATCACTATCCATATATTCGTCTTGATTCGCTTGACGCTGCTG; result = 544 a.u.

Sample 4
Target: Sal-like protein 4, full length isoform B (SALL4, Homo sapiens, UniProt Q9UJQ4-2, residues 1-616)
Technique: universal PBM
Form: double-stranded DNA, one strand shown
Medium: in vitro
Tested at: not given
Notes: 8-mer, flanks averaged, mean of replicates
Direction: higher = stronger binding
Quantity: E-score
Oligonucleotide = AGGCAAAC; result = -0.0659
Oligonucleotide = ACTTAGCT; result = -0.121
Oligonucleotide = ATACTAGG; result = 0.169
Oligonucleotide = CGCCCTTC; result = -0.305
Oligonucleotide = GCTACCCC; result = -0.178
Oligonucleotide = CGTAAATC; result = 0.0825
Oligonucleotide = GCTCTGCA; result = -0.1
Oligonucleotide = GCGTAACC; result = 0.0112
Oligonucleotide = CCATCATA; result = 0.225
Oligonucleotide = AACTGTAC; result = 0.0895
Oligonucleotide = AATCTTCC; result = -0.0251
Oligonucleotide = ACAAGTAA; result = 0.224
Oligonucleotide = ACTTCTGA; result = 0.084
Oligonucleotide = TCGGGTAA; result = 0.0932
Oligonucleotide = CACGAACC; result = -0.206
Oligonucleotide = CAGCTGTA; result = -0.196
Oligonucleotide = CATCTGTC; result = -0.11

Sample 5
Target: JUND, bZIP domain (human)
Technique: DHFR protein complementation
Medium: yeast
Notes: single substitutions, most at no-binding floor
Reference: wild-type JUN-FOS pair
Direction: higher = stronger binding
Quantity: binding fitness
Parent: JUN, bZIP domain (human); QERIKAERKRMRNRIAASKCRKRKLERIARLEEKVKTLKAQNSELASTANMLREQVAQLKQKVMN; partner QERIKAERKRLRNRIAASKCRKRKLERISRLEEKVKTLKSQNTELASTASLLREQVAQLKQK
Variant = K39F; result = -1.19 natural log
Variant = A40S; result = -0.828 natural log
Variant = E44R; result = -0.981 natural log
Variant = E54V; result = -1.07 natural log
Variant = K34C; result = -0.6 natural log
Variant = K34L; result = -0.265 natural log
Variant = K39M; result = -0.633 natural log
Variant = A40L; result = -0.866 natural log
Variant = K34N; result = -0.921 natural log
Variant = T37Y; result = -0.549 natural log
Variant = Q58S; result = -0.634 natural log
Variant = A46I; result = -0.48 natural log
Variant = K34F; result = -1.07 natural log
Variant = E54R; result = -0.879 natural log
Variant = E44L; result = -0.884 natural log
Variant = S47C; result = -0.685 natural log

Single results of other studies
Molecule = PhoQ, residues 284 288 289 292 302 303 AEGLLW; target = PhoP, residues 12 14 15 18 19 TTLRV (Escherichia coli, UniProt P23836); assay = Sort-seq, measured: YFP reporter; system = E. coli; conditions = PhoQ-PhoP variant library, added: 10 µM Mg2+; scale = reference: high Mg2+ state, higher = stronger signaling; quantity = fold induction; result = 4.06
